Measurements from different studies.
Numbered parts are unrelated; each lists some results of a single study. Changes are numbered by the printed parent chain.

Set 1
Target: CCNA1, cyclin fold, Cln2 fusion (human)
Method: yeast growth competition, sequencing
Matrix: yeast
Notes: weak parent motif
Relative to: not given
Reading: higher = stronger binding
Parent: SLBP docking peptide (human); ARYKRKLLINDFG; partner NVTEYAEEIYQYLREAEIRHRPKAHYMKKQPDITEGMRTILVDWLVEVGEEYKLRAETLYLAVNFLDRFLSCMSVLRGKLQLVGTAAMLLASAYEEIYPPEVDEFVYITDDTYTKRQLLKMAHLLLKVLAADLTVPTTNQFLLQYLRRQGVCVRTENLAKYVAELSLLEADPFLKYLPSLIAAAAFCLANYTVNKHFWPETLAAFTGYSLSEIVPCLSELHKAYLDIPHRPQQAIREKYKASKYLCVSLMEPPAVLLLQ
For `G13R`, “normalised enrichment score” read 0.393.
For `G13V`, “normalised enrichment score” read 0.829.
`Y3A`: “normalised enrichment score” 0.912.
`Y3V` — result for “normalised enrichment score”: 0.397.
`A1W` — result for “normalised enrichment score”: 0.484.
`L7Q` — result for “normalised enrichment score”: 0.309.
Under “normalised enrichment score”, `R5W` is recorded as -0.057.
`A1E`: “normalised enrichment score” 0.294.
`R5E` — result for “normalised enrichment score”: 0.4.
For `N10Y`, “normalised enrichment score” read 0.355.
`N10W` — result for “normalised enrichment score”: 0.397.
`N10R` — result for “normalised enrichment score”: 0.119.
`G13Y`: “normalised enrichment score” 0.262.
Under “normalised enrichment score”, `F12H` is recorded as 0.156.
`R2N` — result for “normalised enrichment score”: 0.607.
`Y3G` — result for “normalised enrichment score”: 0.372.
Under “normalised enrichment score”, `L7R` is recorded as 0.312.

Set 2
Target: Interferon regulatory factor 5, full length, phosphomimetic (IRF5, Homo sapiens, UniProt Q13568-2, residues 1-514, K96S/S451D/S453D/S456D/S462D)
Method: protein-binding microarray
Form: double-stranded DNA, one strand shown
Matrix: in vitro
Tested at: 250 nM
Notes: 60-bp whole probe
Together with: salmon DNA 0.4 mg/ml
Relative to: random background probes
Reading: higher = stronger binding
All sequences stand within: GCCTAGCAC … GTCTTGATTCGCTTGACGCTGCTG
For `GCCGGTATCCTTATCCTGACGTGCTAG`, the log fluorescence was -0.00716 z-score.
For `GCATTTTTCTAATTTACTTTGTGCTAG`, the log fluorescence was 0.983 z-score.
`TTAGGACTGTACTTTCGGTTAGTGCTA` has a log fluorescence of 10.1 z-score.
With `TTAGGAATCGGTCTCGGTTAGTGCTAG` the log fluorescence was 1.18 z-score.
For `TTAGGTTTCCTGTTCCTTTAGTGCTAG`, the log fluorescence was 0.658 z-score.
For `GACGGTTCCCTTTTCCCGACGTGCTAG`, the log fluorescence was 0.574 z-score.
`TCAAATCCCACATTTGATACTGTGCTA` has a log fluorescence of 0.5 z-score.
`TTAGGTCTCGGACTGGGTTGGTGCTAG` has a log fluorescence of -0.348 z-score.
For `CCCTGAGTCCCTTGGGCCTTGTGCTAG`, the log fluorescence was -0.754 z-score.
With `TCATACATGTGTTTAAAACTGTGCTAG` the log fluorescence was 0.448 z-score.
For `TTAGGTTCCCCTTTCCTTTAGTGCTAG`, the log fluorescence was 0.446 z-score.
For `TTAGGACTGCTTATCCTATAGTGCTAG`, the log fluorescence was -0.231 z-score.
The log fluorescence of `TTAGGTATCCTTATCCTTCAGTGCTAG` is reported as 0.317 z-score.
For `AACGGTTTCGACTTTCGGGACGTGCTA`, the log fluorescence was 8.4 z-score.
For `TTAGATTTAGGGTATCGATTAGTGCTA`, the log fluorescence was 2.01 z-score.
The log fluorescence of `TTAGGTTTCTTTCTCCTTTAGTGCTAG` is reported as 2.65 z-score.
The log fluorescence of `TTAGATCTCAGTTTTGATTAGTGCTAG` is reported as 1.08 z-score.
For `GAAGATTTCAATTAAAAAAAGTGCTAG`, the log fluorescence was 1.47 z-score.
With `GAAACACTAATTTTTACTTTGTGCTAG` the log fluorescence was 1.76 z-score.
For `TTAGGACTGCGTATCGGTTAGTGCTAG`, the log fluorescence was 2.94 z-score.
`GATGGTTTCGGGTATCGGGACGTGCTA` gave a log fluorescence of 8.8 z-score.
For `GACGGTATCGACTATCGGGCCGTGCTA`, the log fluorescence was 3.65 z-score.
With `TCAAATTTTTTTTCTAAACTGTGCTAG` the log fluorescence was 0.905 z-score.

Set 3
Target: Centromere-binding protein 1, full length, N-terminal tag (CBF1, Saccharomyces cerevisiae, UniProt P17106, residues 1-351)
Chain of UniProt P17106 (whole entry, looked up): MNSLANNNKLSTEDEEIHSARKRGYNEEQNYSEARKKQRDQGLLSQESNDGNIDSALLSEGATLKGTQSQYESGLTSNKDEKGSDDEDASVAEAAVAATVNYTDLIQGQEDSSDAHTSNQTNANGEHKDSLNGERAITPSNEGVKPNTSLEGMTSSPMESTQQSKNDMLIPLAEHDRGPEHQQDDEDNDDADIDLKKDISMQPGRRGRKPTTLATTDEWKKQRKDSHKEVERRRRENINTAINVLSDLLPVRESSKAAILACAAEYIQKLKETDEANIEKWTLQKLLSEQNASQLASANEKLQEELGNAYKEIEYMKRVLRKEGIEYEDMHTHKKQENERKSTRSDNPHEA
Method: protein-binding microarray
Form: double-stranded DNA, one strand shown
Matrix: in vitro
Tested at: 0.8 µM
Notes: whole 60-bp probe, no competitor
Reading: higher = stronger binding
The fluorescence intensity of `CTAGAAGAAAGTTAAACCGTGATTTATTACTTCTTCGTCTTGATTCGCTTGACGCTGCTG` is reported as 539 a.u.
With `GAAAGGTCATGATGAAACGTGCTTGGCAATATATAGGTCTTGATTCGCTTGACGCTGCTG` the fluorescence intensity was 694 a.u.
`CTATGATCTCTTAATCAGGAGGCGATATATACCTTCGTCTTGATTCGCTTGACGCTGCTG` gave a fluorescence intensity of 563 a.u.
`GAAATGCATAAGCATCACCTTGATCCATTTGCCTAGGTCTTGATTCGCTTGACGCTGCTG` gave a fluorescence intensity of 511 a.u.
`GAAACAGGTAAATGCCACACCATTAGGGAATATTAGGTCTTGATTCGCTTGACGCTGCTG` gave a fluorescence intensity of 531 a.u.
`CTAGGTTTCCTGCACCACCAGCCCCCATATGCTTTCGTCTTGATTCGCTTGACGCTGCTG` has a fluorescence intensity of 487 a.u.
`CTAAGAGATAATACGCACGTGATGAAATTCATTTTCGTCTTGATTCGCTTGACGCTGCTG` gave a fluorescence intensity of 10700 a.u.
The fluorescence intensity of `CTAGCCCGTAGAGGACACGTTAATAGAAGACATTTCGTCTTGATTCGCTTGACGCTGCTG` is reported as 498 a.u.
The fluorescence intensity of `GAATATGAATCCACGCACCTGATCTGGCTCTTATAGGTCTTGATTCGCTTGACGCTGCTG` is reported as 1040 a.u.
For `CTACAAATTTAGCAAGTCATGACGGCAAATTTCTTCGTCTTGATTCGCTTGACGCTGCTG`, the fluorescence intensity was 618 a.u.
For `GAACTTTTTAAATGTCATCACATGATGTTTCTTTAGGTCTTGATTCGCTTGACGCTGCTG`, the fluorescence intensity was 4660 a.u.
The fluorescence intensity of `GAATGCCTTATACACCACCTATTCTGGCATCTGTAGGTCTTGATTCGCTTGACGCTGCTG` is reported as 519 a.u.
With `CTATTCTCAATTCATCAGCAGATGGGTCTTCGATTCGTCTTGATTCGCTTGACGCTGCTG` the fluorescence intensity was 526 a.u.
`GAAAATTTTGAAATCCACATGACCTTGAATTAATAGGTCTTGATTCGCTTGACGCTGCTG` gave a fluorescence intensity of 2460 a.u.

Set 4
Target: ABI1, truncated, D143A, DHFR fusion (Arabidopsis thaliana)
Method: DHFR PCA, deep sequencing
Matrix: yeast
Notes: methotrexate growth selection, single substitutions
Together with: (+)-ABA 0 µM
Relative to: wild-type fitted maximum
Reading: higher = stronger binding
Parent: PYL1, truncated, DHFR fusion (Arabidopsis thaliana); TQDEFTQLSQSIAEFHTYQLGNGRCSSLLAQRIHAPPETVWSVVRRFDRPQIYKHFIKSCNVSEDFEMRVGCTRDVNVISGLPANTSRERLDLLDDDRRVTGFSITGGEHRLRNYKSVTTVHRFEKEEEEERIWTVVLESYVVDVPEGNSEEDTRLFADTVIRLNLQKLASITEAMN; partner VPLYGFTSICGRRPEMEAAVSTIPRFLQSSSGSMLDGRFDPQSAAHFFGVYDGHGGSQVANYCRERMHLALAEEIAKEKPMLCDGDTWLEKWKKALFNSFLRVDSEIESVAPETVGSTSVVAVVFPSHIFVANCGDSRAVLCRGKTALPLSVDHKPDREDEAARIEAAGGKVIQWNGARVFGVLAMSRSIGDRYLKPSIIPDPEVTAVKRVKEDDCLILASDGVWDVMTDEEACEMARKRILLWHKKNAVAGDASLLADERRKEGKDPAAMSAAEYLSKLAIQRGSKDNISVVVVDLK
Under “relative binding score”, `A35L` is recorded as 0.834%.
`N85D` — result for “relative binding score”: 11.6%.
`T120A` — result for “relative binding score”: -3.28%.
`G108H`: “relative binding score” -3.89%.
`A35G`: “relative binding score” -0.173%.
`A30L`: “relative binding score” 13.9%.
For `I52Y`, “relative binding score” read 3.47%.
`E147C`: “relative binding score” 5.05%.
For `R132V`, “relative binding score” read 16.4%.
`I105Y` — result for “relative binding score”: -5.02%.
`A175D` — result for “relative binding score”: 11.6%.
Under “relative binding score”, `Y115P` is recorded as 4.71%.
For `R90N`, “relative binding score” read -1.86%.
`L91Y`: “relative binding score” 6.06%.
Under “relative binding score”, `S140W` is recorded as 7.36%.
Under “relative binding score”, `E125C` is recorded as 42.4%.
`D65V`: “relative binding score” -3.97%.

Set 5
Target: Histone acetyltransferase KAT6A, winged helix 2, GST fusion (KAT6A, Homo sapiens, UniProt Q92794, residues 85-181)
Method: protein binding microarray
Form: double-stranded DNA, one strand shown
Matrix: in vitro
Tested at: not given
Notes: 8-mer, flanks averaged, mean of 2 arrays, mostly near background
Relative to: not given
Reading: higher = stronger binding
Residues (chain): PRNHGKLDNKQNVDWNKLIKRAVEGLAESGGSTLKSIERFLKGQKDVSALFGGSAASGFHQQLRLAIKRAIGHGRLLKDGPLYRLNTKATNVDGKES
`AGGCACAC` has an E-score of -0.0314.
For `AGTATTAA`, the E-score was -0.0153.
The E-score of `GCAACCTA` is reported as -0.0856.
`CCGGCAGC` has an E-score of 0.144.
With `CGTAATGC` the E-score was -0.14.
With `GCATATAC` the E-score was -0.131.
With `AGCACGGC` the E-score was 0.0699.
`TACTGAAA` has an E-score of 0.129.
`AGTCCGAG` gave an E-score of 0.169.
`CTTTACAC` has an E-score of 0.0376.
`CGAATCGC` has an E-score of 0.132.
With `CTCTGCAG` the E-score was 0.084.
The E-score of `ACGGCTTG` is reported as 0.00459.
`AACACTAC` has an E-score of -0.0669.
With `AGCAATTC` the E-score was 0.021.
`AACTTATG` has an E-score of 0.108.
`ACGGATCG` has an E-score of -0.0495.

Set 6
Target: FOSL1, bZIP domain (human)
Method: DHFR protein complementation
Matrix: yeast
Notes: single substitutions, most at no-binding floor
Relative to: wild-type JUN-FOS pair
Reading: higher = stronger binding
Parent: JUN, bZIP domain (human); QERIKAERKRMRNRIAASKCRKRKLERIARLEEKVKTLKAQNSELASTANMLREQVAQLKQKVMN; partner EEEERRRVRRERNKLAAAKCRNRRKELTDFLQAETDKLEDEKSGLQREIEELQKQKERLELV
For `L31V`, the binding fitness was -1.27 natural log.
With `S47G` the binding fitness was -0.447 natural log.
For `V56N`, the binding fitness was -1.33 natural log.
`Q55L` gave a binding fitness of -0.682 natural log.
`M51E` gave a binding fitness of -0.354 natural log.
`Q41L` gave a binding fitness of -0.597 natural log.
`E33D` gave a binding fitness of -0.451 natural log.
`R30A` has a binding fitness of -0.0458 natural log.
For `E33Q`, the binding fitness was -0.513 natural log.
With `T48E` the binding fitness was -0.567 natural log.
`Q55S` has a binding fitness of -0.711 natural log.
